Experimental data of several laboratories.
Numbered parts are unrelated; each lists some results of a single study.

Block 1 — method: RNA Bind-n-Seq; form: RNA; medium: in vitro; tested at: not given; reference: input RNA pool; reading: higher = stronger binding; quantity: bound/input enrichment
Target: RING finger protein unkempt homolog, zinc fingers 1-6, GST-SBP tag (UNK, Homo sapiens, UniProt Q9C0B0, residues 30-357)
Chain of UniProt Q9C0B0 (30-357, looked up): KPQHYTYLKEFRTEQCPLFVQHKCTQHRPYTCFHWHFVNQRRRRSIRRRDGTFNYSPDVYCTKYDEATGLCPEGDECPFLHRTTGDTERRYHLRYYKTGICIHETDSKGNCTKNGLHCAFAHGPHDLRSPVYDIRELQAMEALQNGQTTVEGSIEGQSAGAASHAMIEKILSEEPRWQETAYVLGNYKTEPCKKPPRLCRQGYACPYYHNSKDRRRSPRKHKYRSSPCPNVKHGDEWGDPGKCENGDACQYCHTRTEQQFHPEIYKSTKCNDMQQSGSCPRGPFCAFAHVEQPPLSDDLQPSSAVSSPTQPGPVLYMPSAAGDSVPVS
Setting: RNA with constant flanks, human and mouse sites, ends assumed
Strand = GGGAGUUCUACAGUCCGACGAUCGAAAAAGAGGAGGAAGUACAUGCUCGUUUACUUCAUUGUGUAAGCAAACAGAAAAUUUUACUUAGCCAGGCUAGAAGAACUCAGAAACAUUUGCAGAUGCUCCUGGCAAAGCAUGUUGUUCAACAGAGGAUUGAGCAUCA; value = 0.241 ratio
Strand = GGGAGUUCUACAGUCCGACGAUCACUCAGCACCUCAGUGUUGAAACCUCAUACCUUCAGCAUGAAAGUGGCCGGAUCUCCACCAAGUUUGAAUUUAUCCCCAGCCCUGGAAACCACUUCAUUUGGUAUCAGGGAAAAUGGAUCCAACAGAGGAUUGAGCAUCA; value = 0.134 ratio
Strand = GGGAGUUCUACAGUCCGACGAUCGGUCUCAGCCCCCCACCCCCACCCCUUUGUUUGACUUGCGUCGUCUGAUACUCCGUAUUGUAGCUUUUGUCCGCAUGUUACUACCCUGUAAAUAUGCUGUUCCAAUACUGUUAACAGCCUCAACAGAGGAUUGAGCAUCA; value = 0.843 ratio
Strand = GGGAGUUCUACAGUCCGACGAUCUGUUGUGACCCAUUUAACAUACACAAGAAAUUAGCCAAAAAAAAUUUGCAUGUAAUUGACUUAGAUGAUGCCACUUUUCUGAGUGCUAAAUUUGGAAGACAGCUUGUACCUGGUUGGAAGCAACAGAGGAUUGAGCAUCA; value = 12.8 ratio
Strand = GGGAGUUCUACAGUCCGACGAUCUGCUGCUGAAGGGUGUGUCUUGGGGCACACAUCCACUUUGAUUUUGCUUUACUCUUCCAGAAUAGUUGCUGCGUAAUAGAAAUUACAUUUUUCUACUUGAUGGGUCAUCUUAAAUCUGGUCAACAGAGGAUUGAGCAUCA; value = 1.24 ratio

Block 2 — method: protein-binding microarray; form: double-stranded DNA, one strand shown; medium: in vitro; tested at: 250 nM; setting: 60-bp whole probe; with: salmon DNA 0.4 mg/ml; reference: random background probes; reading: higher = stronger binding; quantity: log fluorescence; shared flanks, not repeated: GCCTAGCAC … GTCTTGATTCGCTTGACGCTGCTG
Target: Interferon regulatory factor 7, full length, phosphomimetic (IRF7, Homo sapiens, UniProt Q92985, residues 1-503, S101K/S471D/S472D/S475D/S476D/S477D/S483D/S484D/S487D)
Construct (chain): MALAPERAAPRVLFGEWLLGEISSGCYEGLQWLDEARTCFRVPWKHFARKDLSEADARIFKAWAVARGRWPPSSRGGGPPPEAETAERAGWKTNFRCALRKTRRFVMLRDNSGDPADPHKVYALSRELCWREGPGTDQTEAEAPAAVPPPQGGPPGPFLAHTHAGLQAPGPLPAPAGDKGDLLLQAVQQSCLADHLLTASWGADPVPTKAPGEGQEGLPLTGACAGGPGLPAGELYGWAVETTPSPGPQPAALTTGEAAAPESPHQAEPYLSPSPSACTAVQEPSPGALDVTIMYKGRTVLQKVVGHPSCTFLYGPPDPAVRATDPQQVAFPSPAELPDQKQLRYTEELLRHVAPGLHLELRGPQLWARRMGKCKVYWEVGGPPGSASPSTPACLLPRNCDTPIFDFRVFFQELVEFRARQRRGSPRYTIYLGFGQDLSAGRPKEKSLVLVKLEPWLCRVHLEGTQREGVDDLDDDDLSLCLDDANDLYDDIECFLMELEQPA
Strand = TTTGGTGTCTTTTGTGGAAACGTGCTA; value = -0.317 z-score
Strand = TCAGGTTTCCTTTTCCTTTAGTGCTAG; value = 6.94 z-score
Strand = TTCGGACTGGGTTTCGGTTAGTGCTAG; value = 6.13 z-score
Strand = TTAGGCCTCGGTCTCGGTTAGTGCTAG; value = 2.08 z-score
Strand = TTAGATTCCAGTTTCAATTAGTGCTAG; value = 3.77 z-score
Strand = GACCAACTGAGTATCGAGACGTGCTAG; value = 0.319 z-score
Strand = TCAAAGATTGCCGTTTCCACTGTGCTA; value = -0.0308 z-score
Strand = GACGAACTCGGGACTGGAGACGTGCTA; value = -0.289 z-score
Strand = GACGATTTCGGGACTGGAGGCGTGCTA; value = 0.122 z-score
Strand = TATGGTATTTTTTTGTAATCGTGCTAG; value = 0.383 z-score
Strand = ACACTACCTGACTTCAAACTGTGCTAG; value = 0.167 z-score
Strand = TTAGGACTGGGATTGGGTTAGTGCTAG; value = 0.117 z-score
Strand = CTGTCTGAGGACACCCTGGCGTGCTAG; value = -0.0452 z-score
Strand = AGGAAGACATCAAAGAGAGCGTGCTAG; value = -0.45 z-score
Strand = AACTCTTTGCAGATAAATACGTGCTAG; value = 0.0778 z-score
Strand = GACGGTATCCGGTATCGGGACGTGCTA; value = 0.108 z-score
Strand = TTAGGTTACGGTCTCGGTTAGTGCTAG; value = 1.57 z-score
Strand = GACGAACTGAGTCCCGAGACGTGCTAG; value = 0.112 z-score
Strand = TTAGGTATCGGTTTCGATTAGTGCTAG; value = 10.9 z-score

Block 3 — method: RNA Bind-n-Seq; form: RNA; medium: in vitro; tested at: 200 nM; setting: whole 134-nt RNA, ends assumed; with: 150 mM LiCl; reference: input library; reading: higher = stronger binding; quantity: log2 enrichment; library: 7-deaza-guanosine replaces G
Target: Fragile X messenger ribonucleoprotein 1, C-terminal low-complexity region (Fmr1, Mus musculus, UniProt P35922)
Strand = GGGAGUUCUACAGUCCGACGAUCAGUCCUGUGCUACACAUCGUAUGUACCGAAUCGGGGAAAGGGGUGGGGAAAAAGGGGAAAGUAUUAUGUUACGCCGUUCGGAUCUGCACUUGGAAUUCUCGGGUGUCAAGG; value = -0.27
Strand = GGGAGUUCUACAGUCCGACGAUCCUCAAGUCCUGUGCUACACAUCGUAUGUACCGAAUCGGGAGGGUUUGGGAGGGAAAGUAUUAUGUUACGCCGUUCGGAUCUGCACUUCCAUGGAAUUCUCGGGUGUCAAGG; value = 0.15
Strand = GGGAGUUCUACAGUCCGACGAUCCACAGACAGCACGCACCCACACAGACACAGAGGGAAGGGGUUGGGAUGGGGACAGGGUGCACAGCAGGGCGGGGUAGGACCCCAGCCCCUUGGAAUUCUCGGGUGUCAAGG; value = 0.00066
Strand = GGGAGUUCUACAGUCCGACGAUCUCCUGUGCUACACAUCGUAUGUACCGAAUCGGGUUUUUUGGGGUUUUUUGGUUUUUUGGGAAAGUAUUAUGUUACGCCGUUCGGAUCUGCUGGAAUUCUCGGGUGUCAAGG; value = -0.355
Strand = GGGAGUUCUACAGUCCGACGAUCUCCUCAAGUCCUGUGCUACACAUCGUAUGUACCGAAUCGGAGGGGAGGAGGAAAGUAUUAUGUUACGCCGUUCGGAUCUGCACUUCCAGCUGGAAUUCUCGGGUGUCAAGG; value = -2.56
Strand = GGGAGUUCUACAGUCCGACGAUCGUCCUGUGCUACACAUCGUAUGUACCGAAUCGGGUUUUGGGGUUUUGGGGUUUUGGGGAAAGUAUUAUGUUACGCCGUUCGGAUCUGCACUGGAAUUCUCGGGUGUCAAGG; value = -0.459
Strand = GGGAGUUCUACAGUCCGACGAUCGCAGGAAGUAAAAACAAAUGGAAAUGCUUCGGAUAGUGGCAGGGGUGGGGGUUGCUAAGGAAAGGGUGGGAUAAAAGUGGGUAAAGAGUUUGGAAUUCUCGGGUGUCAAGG; value = 1.82
Strand = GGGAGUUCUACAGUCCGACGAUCUGGGAGGUGGAUUUUGUUUAUUUUUUUAGCUCAUUUCCAGGGGUGGGAACUUUUUUUUAAUAUGUGUCAUGAAUAAAGUUGUUUUUGAAAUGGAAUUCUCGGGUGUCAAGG; value = -0.822

Block 4 — method: RNAcompete; form: RNA; medium: in vitro; tested at: 20 nM; setting: 7-mer, probes averaged, single round; reference: mean of 7-mers; reading: higher = stronger binding; quantity: 7-mer Z-score
Target: PABPC1L2, full length, GST fusion (mouse, UniProt A0ABA7IW68)
Residues (chain): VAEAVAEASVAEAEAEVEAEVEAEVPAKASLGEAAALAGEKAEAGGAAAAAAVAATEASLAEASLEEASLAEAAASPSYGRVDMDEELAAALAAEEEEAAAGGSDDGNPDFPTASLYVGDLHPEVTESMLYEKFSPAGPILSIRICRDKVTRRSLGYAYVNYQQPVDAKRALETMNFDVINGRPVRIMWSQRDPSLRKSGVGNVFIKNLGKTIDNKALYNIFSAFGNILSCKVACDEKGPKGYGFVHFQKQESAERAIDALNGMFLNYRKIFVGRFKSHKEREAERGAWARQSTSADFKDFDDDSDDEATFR
Strand = CAGUAGG; value = -0.0264
Strand = AGUCAGC; value = -0.195
Strand = AUGCUUA; value = -0.0826
Strand = ACCCGUA; value = -0.0554
Strand = CUUGAUC; value = -0.277
Strand = CCGCCAU; value = -0.385
Strand = GGGUCAA; value = 0.282
Strand = GGUAGCC; value = -0.11
Strand = CGUCAGA; value = -0.208
Strand = CCUGGUG; value = -0.255
Strand = CGAUGAG; value = -0.0645
Strand = UGAAAAG; value = 2.16
Strand = ACCUUCG; value = -0.389
Strand = ACACGUG; value = -0.0609
Strand = GAUGCCA; value = -0.133
Strand = CUCUGCG; value = -0.229
Strand = GCACAAC; value = -0.0264
